Published values pooled from the literature.
Each numbered part is a random draw from the data of one study; scales do not carry over between parts. “And” joins repeats or separate records; there may be more than shown.

Set 1
SMILES: Cc1ncsc1-c1ccc([C@H](C)NC(=O)[C@@H]2C[C@@H](O)CN2C(=O)[C@@H](NC(=O)CNC(=O)c2ccc(F)c(-c3ccc(N4C[C@@H](C)N(C)[C@@H](C)C4)c(NC(=O)c4c[nH]c(=O)cc4C(F)(F)F)c3)c2)C(C)(C)C)cc1
Target: WDR5/DCAF1 (Homo sapiens, UniProt P61964+Q9Y4B6)
Mode: degrader
Technique: HiBiT luminescence
Time: 24 h
| setting | remaining protein level |
| --- | --- |
| 58.5 nM | 30.4% and 25.2% and 25.7% and 28.2% |
| 0.2 nM | 94% and 88.9% and 90% and 90.5% |
| 151 nM | 20.4% and 28.4% and 23.5% and 27% |
| 3.42 nM | 57.7% and 54.9% and 61.4% and 62.3% |
| 8.81 nM | 45% and 52.5% and 40.1% and 45.3% |

Set 2
SMILES: CCn1cnc2c(Nc3cccc(Cl)c3)nc(N[C@H]3CCCC[C@H]3N)nc21
Effect on: enzyme activity
Mode: inhibitor
Concentration: 0.5 µM
| target | test | scale | remaining activity [%] |
| --- | --- | --- | --- |
| WEE1 (Homo sapiens, UniProt P30291) |  | reference: control | 110 |
| RPS6KA2 (Homo sapiens, UniProt Q15349) |  | reference: control | 45.1 |
| FGFR1 (Homo sapiens, UniProt P11362) |  | reference: control | 85.7 |
| CSNK1G3 (Homo sapiens, UniProt Q9Y6M4) |  | reference: control | 45.9 |
| MST1R (Homo sapiens, UniProt Q04912) |  | reference: control | 99.6 |
| LCK (Homo sapiens, UniProt P06239) |  | reference: control | 89.5 |
| TAOK2 (Homo sapiens, UniProt Q9UL54) |  | reference: control | 101 |
| FGFR3 (Homo sapiens, UniProt P22607) |  | reference: control | 90.4 |
| GSK3B (Homo sapiens, UniProt P49841) |  | reference: control | 104 |
| MERTK (Homo sapiens, UniProt Q12866) |  | reference: control | 76.2 |
| DYRK1B (Homo sapiens, UniProt Q9Y463) | radiometric |  | 94.4 |
| EPHA3 (Homo sapiens, UniProt P29320) |  | reference: control | 85.7 |
| ARAF (Homo sapiens, UniProt P10398) |  | reference: control | 116 |
| CSNK1G2 (Homo sapiens, UniProt P78368) |  | reference: control | 69.5 |

Set 3
Target: Calcium/calmodulin-dependent protein kinase type II subunit alpha (CAMK2A, Homo sapiens, UniProt Q9UQM7)
Effect on: enzyme activity
Mode: inhibitor
Concentration: 10 µM
| SMILES | inhibition [%] |
| --- | --- |
| NC(N)=NOCC[C@H](N)C(=O)O | 8 |
| CC(C)(C)[C@]1(O)C[C@@H]2OC(=O)C[C@@]23C(=O)O[C@@H]2OC(=O)[C@H](O)[C@]213 | 17 |
| CN1CCc2cc3c(cc2C1O)OCO3 (stereo not drawn) | 27 |
| CC(C(=O)O)C(=O)O | 1 |
| CC(C)C(N)CC(=O)O (stereo not drawn) | -18 |
| CC[C@@H]1CN2CC[C@]3(C(=O)Nc4ccccc43)[C@@H]2C[C@@H]1/C(=C\OC)C(=O)OC | -5 |
| CC1(C)[C@H]2O[C@H]2[C@H]2[C@](C)(O)[C@@H]3CC[C@@H]4[C@@H](O)[C@@]3(C[C@@H](O)[C@@]21O)C[C@@]4(C)O | -21 |
| C=C/C=C/C[C@@H](C)[C@@H](O)[C@H]1C(=O)N[C@@H](CC)C(=O)N(C)CC(=O)N(C)[C@@H](CC(C)C)C(=O)N[C@@H](C(C)C)C(=O)N(C)[C@@H](CC(C)C)C(=O)N[C@@H](C)C(=O)N[C@H](C)C(=O)N(C)[C@@H](CC(C)C)C(=O)N(C)[C@@H](CC(C)C)C(=O)N(C)[C@@H](C(C)C)C(=O)N1C | -3 |
| COc1ccc2c(c1OC)CC1c3c(cc4c(c3-2)OCO4)CCN1C (stereo not drawn) | -17 |
| CC[N+](C)(CC)CCOC(=O)C(O)(c1ccccc1)c1ccccc1 | -14 |
| C[C@H]1CCCC(=O)CCCCCc2cc(O)cc(O)c2C(=O)O1 | 14 |
| COC(=O)C1=CCCNC1 | 1 |

Set 4
Target: vesicular stomatitis virus glycoprotein
Effect on: viral entry
Technique: VSVΔG-G pseudovirus
Concentration: 10 µM
| Compound | inhibition |
| --- | --- |
| Oc1ccc(CN2CCN(c3cccc(C(F)(F)F)c3)CC2)c2cccnc12 | 22% |
| CS(=O)(=O)c1cc(C(F)(F)F)cc(S(C)(=O)=O)c1S(C)(=O)=O | 12% |
| Cc1ccccc1CN1C[C@@H]2C[C@@H](c3cc4ccccc4o3)N3CCC[C@@]23C1=O | 25% |
| Oc1ccc2ccccc2c1N=Nc1ccccn1 | 26% |
| COc1cccc(C(=O)N/N=C(\C)c2ccccc2O)c1 | 35% |
| COc1cc(C(=O)N2c3ccccc3C=Cc3ccccc32)cc(OC)c1OC | 34% |
| CCCCN1COc2c(cc(Cl)c3cccnc23)C1 | 12% |
| CCOC(=O)c1cc(C#N)c(Sc2nnc(SC)s2)nc1C(F)(F)F | 29% |

For quick reference, copied from above (set 3):
| SMILES | inhibition [%] |
| --- | --- |
| CC1(C)[C@H]2O[C@H]2[C@H]2[C@](C)(O)[C@@H]3CC[C@@H]4[C@@H](O)[C@@]3(C[C@@H](O)[C@@]21O)C[C@@]4(C)O | -21 |
| C=C/C=C/C[C@@H](C)[C@@H](O)[C@H]1C(=O)N[C@@H](CC)C(=O)N(C)CC(=O)N(C)[C@@H](CC(C)C)C(=O)N[C@@H](C(C)C)C(=O)N(C)[C@@H](CC(C)C)C(=O)N[C@@H](C)C(=O)N[C@H](C)C(=O)N(C)[C@@H](CC(C)C)C(=O)N(C)[C@@H](CC(C)C)C(=O)N(C)[C@@H](C(C)C)C(=O)N1C | -3 |
| COc1ccc2c(c1OC)CC1c3c(cc4c(c3-2)OCO4)CCN1C (stereo not drawn) | -17 |
| CC[N+](C)(CC)CCOC(=O)C(O)(c1ccccc1)c1ccccc1 | -14 |
| C[C@H]1CCCC(=O)CCCCCc2cc(O)cc(O)c2C(=O)O1 | 14 |
| COC(=O)C1=CCCNC1 | 1 |
